Measured values gathered from unrelated publications.
Compare with care: the assays were run in different laboratories. Several values in a cell are separate wells, animals, samples, runs or records. ± marks the error that the study gave.
Genome polyprotein NS3 helicase domain: Genome polyprotein, NS3 helicase domain (Hepatitis C virus genotype 1b, UniProt Q9WMX2)
RORC: Nuclear receptor ROR-gamma (RORC, Homo sapiens, UniProt P51449)
UniProt P51449, sequence (whole entry, looked up): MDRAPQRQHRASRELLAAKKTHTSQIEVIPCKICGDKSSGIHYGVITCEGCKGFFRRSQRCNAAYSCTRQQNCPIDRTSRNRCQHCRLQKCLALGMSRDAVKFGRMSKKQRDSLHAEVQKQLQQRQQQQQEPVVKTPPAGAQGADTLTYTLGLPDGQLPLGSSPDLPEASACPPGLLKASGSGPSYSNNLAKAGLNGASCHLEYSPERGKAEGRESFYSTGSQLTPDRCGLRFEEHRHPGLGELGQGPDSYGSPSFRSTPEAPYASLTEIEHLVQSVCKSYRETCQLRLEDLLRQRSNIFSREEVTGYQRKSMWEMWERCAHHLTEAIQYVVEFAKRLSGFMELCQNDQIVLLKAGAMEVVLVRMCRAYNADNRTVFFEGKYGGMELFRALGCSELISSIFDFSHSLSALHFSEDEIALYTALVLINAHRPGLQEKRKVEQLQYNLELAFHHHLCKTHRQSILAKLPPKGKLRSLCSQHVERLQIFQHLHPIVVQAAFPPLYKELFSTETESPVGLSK
WD repeat-containing protein 91 WD40 domain, residues 392–747: WD repeat-containing protein 91, WD40 domain, residues 392–747 (Homo sapiens, UniProt A4D1P6)
UniProt A4D1P6, sequence (whole entry, looked up): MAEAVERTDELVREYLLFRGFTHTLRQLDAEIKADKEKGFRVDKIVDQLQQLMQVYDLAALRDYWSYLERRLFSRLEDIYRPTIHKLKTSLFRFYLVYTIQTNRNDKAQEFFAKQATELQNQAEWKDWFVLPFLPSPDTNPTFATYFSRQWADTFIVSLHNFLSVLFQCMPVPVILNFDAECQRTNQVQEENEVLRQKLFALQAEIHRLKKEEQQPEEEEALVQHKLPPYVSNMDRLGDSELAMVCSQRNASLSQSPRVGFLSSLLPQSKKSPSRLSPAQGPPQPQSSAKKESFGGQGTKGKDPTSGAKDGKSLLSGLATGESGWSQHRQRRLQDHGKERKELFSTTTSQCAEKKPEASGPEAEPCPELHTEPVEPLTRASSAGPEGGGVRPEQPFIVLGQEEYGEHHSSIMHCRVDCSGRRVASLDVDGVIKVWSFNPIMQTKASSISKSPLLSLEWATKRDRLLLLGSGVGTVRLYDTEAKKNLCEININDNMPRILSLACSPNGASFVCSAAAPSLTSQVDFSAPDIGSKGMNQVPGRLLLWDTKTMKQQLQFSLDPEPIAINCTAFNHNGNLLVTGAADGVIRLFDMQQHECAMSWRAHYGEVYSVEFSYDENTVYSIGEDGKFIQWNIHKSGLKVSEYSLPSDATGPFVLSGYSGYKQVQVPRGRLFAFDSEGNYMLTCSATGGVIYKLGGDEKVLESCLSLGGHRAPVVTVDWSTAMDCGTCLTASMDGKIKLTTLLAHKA
T1: Broccoli RNA aptamer; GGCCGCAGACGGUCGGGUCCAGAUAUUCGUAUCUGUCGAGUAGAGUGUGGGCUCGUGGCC
UniProt Q16774, sequence (whole entry, looked up): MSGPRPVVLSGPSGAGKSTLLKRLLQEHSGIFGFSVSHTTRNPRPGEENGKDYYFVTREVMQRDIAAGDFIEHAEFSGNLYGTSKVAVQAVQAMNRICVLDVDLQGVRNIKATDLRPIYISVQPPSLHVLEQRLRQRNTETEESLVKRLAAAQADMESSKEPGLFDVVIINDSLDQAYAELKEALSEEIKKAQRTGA
UniProt P00441, sequence (whole entry, unmodified, looked up): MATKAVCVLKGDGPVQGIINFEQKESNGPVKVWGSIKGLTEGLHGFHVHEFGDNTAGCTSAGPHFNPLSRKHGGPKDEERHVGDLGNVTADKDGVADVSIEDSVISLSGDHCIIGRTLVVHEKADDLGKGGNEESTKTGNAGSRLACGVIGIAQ
UniProt Q93015, sequence (whole entry, looked up): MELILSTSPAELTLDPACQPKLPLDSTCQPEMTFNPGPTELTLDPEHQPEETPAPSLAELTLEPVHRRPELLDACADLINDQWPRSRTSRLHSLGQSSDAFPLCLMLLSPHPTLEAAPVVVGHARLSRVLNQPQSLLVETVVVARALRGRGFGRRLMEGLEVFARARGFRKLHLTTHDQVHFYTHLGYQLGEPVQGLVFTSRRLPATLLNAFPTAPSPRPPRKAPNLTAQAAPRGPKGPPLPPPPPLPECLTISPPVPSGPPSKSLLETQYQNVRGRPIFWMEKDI
UniProt P04117, sequence (whole entry, looked up): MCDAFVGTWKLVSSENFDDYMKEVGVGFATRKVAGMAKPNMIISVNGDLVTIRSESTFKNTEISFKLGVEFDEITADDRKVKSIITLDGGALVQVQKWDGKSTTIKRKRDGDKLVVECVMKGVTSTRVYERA

Structure (SMILES)	target	test	system	conditions	scale	endpoint	result
O=C1NC(=O)C(c2ccccc2)(c2ccccc2)N1	Glutamate receptor 2 (Homo sapiens, UniProt P42262)	ion current, positive allosteric modulator, SyncroPatch patch clamp	HEK293	10 µM		potentiation	91%
CC[C@H](C)[C@H](NC(=O)[C@H](CCCCN)NC(=O)CNC(=O)[C@@H](NC(=O)[C@@H](NC(=O)[C@H](CCSC)NC(=O)[C@H](Cc1c[nH]cn1)NC(=O)CN)[C@@H](C)O)C(C)C)C(=O)N[C@@H](Cc1ccc(O)cc1)C(=O)N[C@@H](C)C(=O)N[C@@H](C)C(=O)N[C@@H](C)C(=O)N[C@@H](CCSC)C(=O)N[C@H](C(=O)N[C@@H](CCSC)C(=O)N[C@@H](CCC(=O)O)C(=O)N[C@@H](Cc1ccc(O)cc1)C(=O)N[C@@H](Cc1ccc(O)cc1)C(=O)N[C@@H](CCCNC(=N)N)C(=O)N[C@@H](CCC(N)=O)C(=O)N[C@@H](CO)C(=O)N[C@@H](CCCCN)C(=O)N[C@@H](C)C(=O)N[C@@H](CCCCN)C(=O)N[C@@H](CCCCN)C(=O)N[C@@H](CC(C)C)C(=O)N[C@@H](CCC(N)=O)C(=O)N[C@@H](C)C(=O)N[C@@H](CCSC)C(=O)N[C@@H](CCCNC(=N)N)C(=O)O)[C@@H](C)CC	Calmodulin-1, Ca2+-bound N-lobe (CALM1, Homo sapiens, UniProt P0DP23)	binding, isothermal titration calorimetry		pH 7.4, 15 °C, N-lobe, CaV2.1 IQ domain, with: Ca2+		ΔH	-4.63 ± 0.14 kcal/mol
Cc1cc(O)c2c(c1)C(=O)c1cc(O)cc(O)c1C2=O	Genome polyprotein NS3 helicase domain	DNA binding, inhibitor	hepatitis C virus	100 µM, with: Cy5-dT15 DNA		inhibition	0%
Oc1ccc([C@H]2COc3cc(O)ccc3C2)cc1	Estrogen receptor (ESR1, Homo sapiens, UniProt P03372)	array formation	PRL-HeLa		reference: EC50 ERβ over EC50 ERα	selectivity ratio	2.6
C=CC(=O)N1CCC(COCC(=O)N2CCN(c3nc(-c4cnc(N)nc4C(F)F)nc(N4CCOC[C@@H]4C)n3)CC2)CC1	MAP2K4 (Homo sapiens, UniProt P45985)	KINOMEscan		1 µM		remaining binding	93%
O=C(COC(=O)c1cccc(N2C(=O)C3C4c5ccccc5C(c5ccccc54)C3C2=O)c1)c1ccc(Cl)cc1 (centres unmarked)	RORC	cell-based		concentration not given		activity class	active
CC[C@@H]1[C@H](F)C(=O)N[C@@H]1COc1nccc2cc(C(N)=O)c(OC)cc12	CDK2 (Homo sapiens, UniProt P24941)	ATP-site probe binding, ActivX profiling	THP-1 cell lysate	0.04 mM, Lys1 site		inhibition	-4%
O=C1NCN(c2ccccc2)C12CCN(CCCC(c1ccc(F)cc1)c1ccc(F)cc1)CC2	Genome polyprotein NS3 helicase domain	DNA binding, inhibitor	hepatitis C virus	100 µM, with: Cy5-dT15 DNA		inhibition	0%
Cc1[nH]c(C)c(S(=O)(=O)Nc2ccc(C(F)(F)F)c(Cl)c2)c1C(=O)N1CCC(F)(F)C1	DRD3 (Homo sapiens, UniProt P35462)	binding	membranes	100 µM, with: [3H]dopamine		Bmax increase	19%
CN(C)c1nc(N(C)C)nc(N(C)C)n1	Genome polyprotein NS3 helicase domain	DNA binding, inhibitor	hepatitis C virus	100 µM, with: Cy5-dT15 DNA		inhibition	0%
N#Cc1cccc2c1CC[C@H]2NC(=O)c1ccc(-c2ccco2)[nH]1	WD repeat-containing protein 91 WD40 domain, residues 392–747	SPR		45 µM		binding	45% and 33%
Nc1ccn([C@H]2C[C@H](O)[C@@H](COP(=O)(O)OP(=O)(O)OP(=O)(O)O)O2)c(=O)n1	Genome polyprotein, NS5B (Hepatitis C virus genotype 1b, UniProt Q9WMX2)	nucleotide incorporation, substrate				Vmax	0.72 fraction per time
CC1=N/C(=C\c2cc(F)c(O)c(F)c2)C(=O)N1CC(F)(F)F	T1, Broccoli RNA aptamer	fluorescence turn-on				binding	binds
NC(=O)C1=CN([C@@H]2O[C@H](COP(=O)(O)OP(=O)(O)OC[C@H]3O[C@@H](n4cnc5c(N)ncnc54)[C@H](O)[C@@H]3O)[C@@H](O)[C@H]2O)C=CC1	FSP1 L323A mutant	substrate		with: 100 µM co-substrate		Km	45.2 ± 6.9 µM
O=c1c2ccccc2[nH]c(=S)n1CCN1CCC(=C(c2ccc(F)cc2)c2ccc(F)cc2)CC1	Genome polyprotein NS3 helicase domain	DNA binding, inhibitor	hepatitis C virus	100 µM, with: Cy5-dT15 DNA		inhibition	1%
N#Cc1cccc2c1CC[C@H]2NC(=O)c1ccc(SCc2cn3ccccc3n2)cc1	WD repeat-containing protein 91 WD40 domain, residues 392–747	binding, SPR single-concentration screen		45 µM		SPR response	30.2 RU and 48.2 RU
COC(=O)c1sc(-c2cccs2)cc1NC(=O)/C=C/C(=O)O	Fatty acid-binding protein, adipocyte, with HSL (Fabp4, Mus musculus, UniProt P04117)	FABP4-HSL interaction		1 µM, with: 20 µM forskolin		FRET	no effect
N#CC1CCN(C(=O)c2ccc(CCc3ccccc3)cc2)CC1	WD repeat-containing protein 91 WD40 domain, residues 392–747	SPR		45 µM		binding	-3% and -12%
CCCCC[S+]([O-])c1n[nH]c(N)n1 (centres unmarked)	SPRY domain-containing SOCS box protein 2, SPRY domain (Homo sapiens, UniProt Q99619)	binding, affinity selection mass spectrometry			reference: other proteins in batch	log fold enrichment	-0.0585
CC(C)(O)c1ccc(-c2nc3cc(NC(=O)c4cnc(OCc5ccccc5)nc4)ccc3c(=O)[nH]2)cc1	TNKS2 (Homo sapiens, UniProt Q9H2K2)	PARylation, inhibitor, biochemical PARylation			reference: TNKS1 IC50 over TNKS2 IC50	selectivity ratio	389
Nc1nc2c(ncn2[C@@H]2O[C@H](COP(=O)(O)O)[C@@H](O)[C@H]2O)c(=O)[nH]1	GUK1 (Homo sapiens, UniProt Q16774)	enzyme activity, NADH-coupled		250 µM, with: NaCl 10 mM		reaction velocity	0.0751 µM/s and 0.0694 µM/s and 0.0664 µM/s
CCCCCCCC(=O)c1cc(OC)c(OC)c(OC)c1CC(=O)OCC	RORC	reporter gene, Gal4 hybrid reporter		10 µM	reference: vehicle	activation	0.65 fold
CC(Oc1ccccc1)C(=O)NCc1ccccn1 (centres unmarked)	WD repeat-containing protein 91 (Homo sapiens, UniProt A4D1P6)	binding, affinity selection mass spectrometry			reference: other proteins in batch	log fold enrichment	-0.0198
COc1cc(/C=C/C(=O)C(=Cc2ccccc2)C(=O)/C=C/c2ccc(O)c(OC)c2)ccc1O	haemin	binding, isothermal titration calorimetry		pH 7.4, 37 °C		ΔG	-7.53 ± 0.402 kcal/mol
O=C1NC(=O)C(c2ccccc2)(c2ccccc2)N1	Genome polyprotein NS3 helicase domain	DNA binding, inhibitor	hepatitis C virus	100 µM, with: Cy5-dT15 DNA		inhibition	1%
N=C(N)NCCC[C@H](N)C(=O)O	N-alpha-acetyltransferase 80 (NAA80, Homo sapiens, UniProt Q93015)	substrate, DTNB		2 mM, 30 min, 37 °C, with: acetyl-CoA 500 µM		product formation	1.14 µM
[O-][S+]1CCCCS1 (centres unmarked)	SOD1 (Homo sapiens, UniProt P00441, G94A)	intact protein LC-MS	SOD1 G93A transgenic mice, whole blood	intravenous, 10 mg/kg, 4 h, mean of two mice		target engagement	53.1%
COc1cc(/C=C(\C#N)C(=O)c2ccc(O)c(O)c2)cc(I)c1O	Genome polyprotein NS3 helicase domain	DNA binding, inhibitor	hepatitis C virus	100 µM, with: Cy5-dT15 DNA		inhibition	37%
COc1cc(O)c2c(c1)oc(=O)c1c3cc(O)c(O)cc3oc21	MAL12 (Saccharomyces cerevisiae S288c, UniProt P53341)	circular dichroism		molar ratio 1:1		random coil content	40.8%

Some of these lines once more:
Structure (SMILES)	target	test	system	conditions	scale	endpoint	result
CCCCCCCC(=O)c1cc(OC)c(OC)c(OC)c1CC(=O)OCC	RORC	reporter gene, Gal4 hybrid reporter		10 µM	reference: vehicle	activation	0.65 fold
CC(Oc1ccccc1)C(=O)NCc1ccccn1 (centres unmarked)	WD repeat-containing protein 91 (Homo sapiens, UniProt A4D1P6)	binding, affinity selection mass spectrometry			reference: other proteins in batch	log fold enrichment	-0.0198
